# Experimental data of several laboratories.
# A part holds a random share of what one study measured. Changes are numbered by the printed parent chain.

# Series 1 — technique: RNA Bind-n-Seq; molecule type: RNA; matrix: in vitro; tested at: 1 µM; notes: whole 134-nt RNA, ends assumed; added: 150 mM KCl; baseline: input library; direction: higher = stronger binding
# Target: Ras GTPase-activating protein-binding protein 1, RRM domain (G3BP1, Homo sapiens, UniProt Q13283)
# UniProt Q13283, sequence (whole entry, looked up): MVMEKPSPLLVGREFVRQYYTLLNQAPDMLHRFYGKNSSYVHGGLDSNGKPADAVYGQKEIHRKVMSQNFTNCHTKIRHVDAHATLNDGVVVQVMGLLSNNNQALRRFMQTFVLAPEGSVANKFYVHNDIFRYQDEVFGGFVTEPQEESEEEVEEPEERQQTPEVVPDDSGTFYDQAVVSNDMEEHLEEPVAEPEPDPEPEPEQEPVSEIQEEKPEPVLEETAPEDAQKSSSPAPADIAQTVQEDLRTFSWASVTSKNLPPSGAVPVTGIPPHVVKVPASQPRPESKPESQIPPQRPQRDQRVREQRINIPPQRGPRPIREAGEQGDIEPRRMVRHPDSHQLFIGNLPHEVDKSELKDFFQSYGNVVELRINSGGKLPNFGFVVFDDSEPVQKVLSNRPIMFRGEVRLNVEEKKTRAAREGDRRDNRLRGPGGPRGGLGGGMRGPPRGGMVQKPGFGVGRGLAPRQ
Sequence,log2 enrichment
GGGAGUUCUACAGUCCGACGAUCCUCAAGUCCUGUGCUACACAUCGUAUGUACCGAAUCGGGUUGGGGUUGGUUGGAAAGUAUUAUGUUACGCCGUUCGGAUCUGCACUUCCAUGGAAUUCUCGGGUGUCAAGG,-0.268
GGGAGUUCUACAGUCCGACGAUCUCAAGUCCUGUGCUACACAUCGUAUGUACCGAAUCGGUGGAAAAAGGUUUUUGGAAAGUAUUAUGUUACGCCGUUCGGAUCUGCACUUCCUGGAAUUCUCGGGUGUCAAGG,-0.155
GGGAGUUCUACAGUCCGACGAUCUCAAGUCCUGUGCUACACAUCGUAUGUACCGAAUCGGGGCCGGGCCGGGGCCGGAAAGUAUUAUGUUACGCCGUUCGGAUCUGCACUUCCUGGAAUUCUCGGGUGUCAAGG,-1.37
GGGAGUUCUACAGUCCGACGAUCAAGUCCUGUGCUACACAUCGUAUGUACCGAAUCGGGAAAAGGGAAAAGGAAAAGGGGAAAGUAUUAUGUUACGCCGUUCGGAUCUGCACUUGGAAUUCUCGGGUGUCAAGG,0.104
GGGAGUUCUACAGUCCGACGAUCUGUGCUACACAUCGUAUGUACCGAAUCGGGGCCCCCCCGGGCCCCCCCGGGGCCCCCCCGGGGAAAGUAUUAUGUUACGCCGUUCGGAUCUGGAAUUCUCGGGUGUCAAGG,-0.829
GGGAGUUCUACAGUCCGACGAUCUGGCCCUGGUGGCAUGCGGGGAGGAAGGGGUGGCCUCAUGGAUCGUGGUGGUCCCGGUGGAAUGUUCAGAGGUGGCCGUGGUGGAGACAGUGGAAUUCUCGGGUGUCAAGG,0.908
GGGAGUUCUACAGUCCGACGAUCUUGGGCUGCCCAUCACCGUGGCCCAUGUGGAUGGCCAAACCCACAUGUUAUUUGGCUCUGACCGGAUGGAGCUGCUGGCGCACCUGCUGGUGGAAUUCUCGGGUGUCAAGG,-0.5
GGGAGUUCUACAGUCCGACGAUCUGCUGGUGAGCUGCUGCCUGGCAGGCCACGUCUGCGUGUGGGACGCGCAGACCGGGGAUUGCCUAACGCGCAUUCCGCGCCCAGGGUAGGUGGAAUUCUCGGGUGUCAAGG,-0.673

# Series 2 — technique: protein-binding microarray; molecule type: double-stranded DNA, one strand shown; matrix: in vitro; tested at: 2540 nM top; notes: 60-bp whole probe; added: salmon DNA 0.4 mg/ml; baseline: random background probes; direction: higher = stronger binding; shared flanks, not repeated: GCCTAGCAC … GTCTTGATTCGCTTGACGCTGCTG
# Target: Interferon regulatory factor 3, full length, phosphomimetic (IRF3, Homo sapiens, UniProt Q14653, residues 1-427, S386D/S396D/S398D/S402D/T404D/S405D)
# Construct (chain): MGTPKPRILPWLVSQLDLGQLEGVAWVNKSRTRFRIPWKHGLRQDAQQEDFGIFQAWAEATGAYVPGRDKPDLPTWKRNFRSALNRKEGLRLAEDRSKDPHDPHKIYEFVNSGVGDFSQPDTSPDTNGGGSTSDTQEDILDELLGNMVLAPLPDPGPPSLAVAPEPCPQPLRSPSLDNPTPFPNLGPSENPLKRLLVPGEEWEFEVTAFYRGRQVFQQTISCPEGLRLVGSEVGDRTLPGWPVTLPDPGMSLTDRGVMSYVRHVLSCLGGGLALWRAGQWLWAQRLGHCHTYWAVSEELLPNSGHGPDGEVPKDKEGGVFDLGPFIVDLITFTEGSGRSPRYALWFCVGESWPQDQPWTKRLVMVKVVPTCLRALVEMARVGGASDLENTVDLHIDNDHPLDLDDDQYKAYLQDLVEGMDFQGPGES
Sequence,fitted relative affinity [z-score]
GTCGATTTCGGGTTTCGAGACGTGCTA,3.91
GTCATTCTCAACCCTGGTGCTGTGCTA,1.18
TCCATTTTGTGTTTTCATTTGTGCTAG,2.53
GACGGTATCGGTATCAGGACGTGCTAG,4.61
GATTGGCTGACTTTGGAGATGTGCTAG,-0.554
GACGGTTTCGGTTTCTGGACGTGCTAG,9.56
GACGGACTGGGTCTCGGGTCGTGCTAG,-0.547
TTTACTCTCTACATGGGTATGTGCTAG,0.67
TAAATTCTGAAAATGGAAACGTGCTAG,0.856
GACAGTTTCCTTTCCCTGACGTGCTAG,10.6
TTAGAACTGGGTCTCGGTTAGTGCTAG,-0.577
CTTTTTTTTTTTTTTTTTTGGTGCTAG,2.94
GACGGTTCCCTGTTCCTGACGTGCTAG,1.92
GACGAACTGAGGATCGAGACGTGCTAG,-0.269
GGCGGACTGGGGACTGGGGACGTGCTA,-1.19
AGAGCTAAGTGAGTGTCATCGTGCTAG,-0.803
ATCTCTTTCCTTACTTCCCAGTGCTAG,4.7
TTAGGACTGCTCCTCCTTTAGTGCTAG,-0.0637

# Series 3 — target: CCND2, cyclin fold, Cln2 fusion (human); technique: yeast growth competition, sequencing; matrix: yeast; notes: weak parent motif; baseline: not given; direction: higher = stronger binding
# Starting sequence: CDC25A docking peptide (human); PPHRRRLLFACSP
Substitution,normalised enrichment score
F9C,-0.0478
A10E,0.0049
A10C,-0.138
R6I,0.0347
C11S,0.0574
L8S,-0.0445
H3D,0.57
F9M,0.274
P1H,-0.00684
P2L,-0.112
S12H,-0.125
A10T,0.196
S12D,-0.0552
P1T,-0.014
P2N,0.0799
L7S,-0.0065
P2V,-0.191
R4N,0.451

# Series 4 — technique: RNA Bind-n-Seq; molecule type: RNA; matrix: in vitro; tested at: 365 nM; baseline: no-protein control; direction: higher = stronger binding
# Target: RNA binding protein fox-1 homolog 2, RRM domain, GST-SBP tag (RBFOX2, Homo sapiens, UniProt O43251-10, residues 100-194)
# Notes: natural RNA segment, single round, ends assumed
# Residues (chain): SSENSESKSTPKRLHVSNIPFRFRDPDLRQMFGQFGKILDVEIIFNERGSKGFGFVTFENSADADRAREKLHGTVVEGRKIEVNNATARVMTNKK
Sequence,RBNS enrichment (R)
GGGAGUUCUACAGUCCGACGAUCAAAUAGCGUUCUGCUUGGGAUGGUGGCUGGUUCUAUGCCUACGCUCUCCGGUGACACCUAUAAGCCUCCAUUGAGCUCAGAGAGGAUGCCUUAGGCUGGAUCCUGCUCCUUGGAAUUCUCGGGUGCCAA,0.538
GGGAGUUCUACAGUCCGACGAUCACCCAUGAAAUACUUCAUCUUGAGAAGAGUGCUAUGUGGAAAUCACCAAAUAUCUCGCAACUUUAUUUCAUCUGGUGUAAAUCUGAACAUCAACAUAGGAAAACUGUCAUUGGAAUUCUCGGGUGCCAA,0.443
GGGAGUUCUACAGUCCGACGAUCUGAUUUUUUAAAUAUCAUGUAAUGUUAAAACGUUUUCUAACAGUUUACUGUUGCUUAUCUCCAAGAUAUUAUGGAAUUAAGAAUUUUUCCAGAUGAGUGUUACAUAGAUUUGGAAUUCUCGGGUGCCAA,0.568
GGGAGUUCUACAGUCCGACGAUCAGGUAUGUUAUGCACUACAGCCUGAUCUUUUCAGUCUAAGACAGCAUGGCUUCACUUUCCUGUGUUAUGAGAAGGUCACACUUUGGAAUACUGAAGGACAAUCCUGAAGUUGGAAUUCUCGGGUGCCAA,3.42
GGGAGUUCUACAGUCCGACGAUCGUACAGAUGUGUCUCAGUUGUGAAGGUCUAUUCCUGGCUGCACAGUCCCCAUCCGCUCAGUCAUCUUACCCUGUGACUGCUCUCAGCCCUGAAGAAUCCACAACCAUCCUUGGAAUUCUCGGGUGCCAA,0.312
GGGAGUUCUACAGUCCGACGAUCACAGCUCCUGCUGUGACUGAGGGACGGGGUGUAUCUGGCCUACCCUAGUUGUUGCAGAAUCCUUCCCCAGGAGCCCCUUCACUCCUGCUGGGGUAGUCACCAGCUUACUGUGGAAUUCUCGGGUGCCAA,0.35
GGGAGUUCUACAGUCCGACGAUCACAAGCAGAUUGGUUGAACCUUAUUUAAUGAGGAGUAACAGGCUGUUUUUAAGUGUUUGCCUGUGGCUACUUCCGUUCUAUAGCUCAAGAAUAUGCCAUUACAUCAUAGUUGGAAUUCUCGGGUGCCAA,0.237
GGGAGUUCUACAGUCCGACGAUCGGGUGAAGAACCCUCUGUCCCACCCCUAGCCACCAGUGUCCUCCAAGUGCCCCCUCACCUCUCCAGGUGCUCAUUGUAACCAUUUCUCACUAGUGUCAGGCCCCCAGUGGUGGAAUUCUCGGGUGCCAA,0.409
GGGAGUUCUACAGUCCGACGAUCUCUUUGGGCAGAGAUUCUAUUUUUGACAUUUGCACAAGACAGGUAGGGAAAGGGGACUUGUGGUAGUGGACCAUACCUGGGGACCAAAAGAGACCCACUGUAAUUGAUGCUGGAAUUCUCGGGUGCCAA,0.974
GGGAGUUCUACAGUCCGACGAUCGGCCAUUAACACUGAUAAGUAUGAAUAUACAGAUAUGGCUUAGGUUUCUUCAAGAGGAAACAUAUUCUGUCCGAAGGAAACUGUAGUGCGAGCCCAGAGUGUUCAAAGGCUGGAAUUCUCGGGUGCCAA,0.651
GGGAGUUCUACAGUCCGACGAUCUAAACCUGUGAUAAGAUGUCUGCAAUAGACUCAGCCUUCUGUGACUAACUCCUAACUAACCAGCUCGCAGUGCGCUGCAGCCUUCCUUUUACCUUCAGCUGUCUCAGGAAUGGAAUUCUCGGGUGCCAA,0.63
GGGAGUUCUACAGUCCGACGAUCUACAAACUUAAGUGUAUGUGCUAAAACUAAAUGUAUGUAACAUUUUUUUUUUAGCAGCGCCUUUGCUAGAUCAGCUGCCAGUUUGGAUUAUUGCCCUUAAGAGCUUUAAAUGGAAUUCUCGGGUGCCAA,0.333

# Series 5 — technique: aptamer microarray, sandwich; molecule type: DNA with 2'F-ANA; matrix: in vitro; tested at: 200 nM; added: Cy3 exosite-II aptamer, 400 nM; direction: higher = stronger binding; sequence: GGTTGGTGTGGTTGG
# Target: Prothrombin, mature alpha-thrombin (F2, Homo sapiens, UniProt P00734)
# Notes: whole 15-mer aptamer, many near background
Modification,mean fluorescence intensity
2'F-ANA at 1 3 5 7 11 15,57.1 a.u.
2'F-ANA at 2 3 5 7 9 10 11 13 14,53.3 a.u.
2'F-ANA at 1 5 6 9 12 15,108 a.u.
2'F-ANA at 3 4 7 8 9 12 13 14,381 a.u.
2'F-ANA at 2 3 6 8 10 12 13 14,324 a.u.
2'F-ANA at 3 4 6 7 9 10 11 12 13 14 15,152 a.u.
2'F-ANA at 3 4 7 8 9 12 14,424 a.u.
2'F-ANA at 1 2 4 12 13 14 15,58.7 a.u.
2'F-ANA at 1 5 6 7 11 12 15,85.9 a.u.
2'F-ANA at 1 2 4 5 6 8 9 10 12,50.1 a.u.
2'F-ANA at 1 3 4 6 7 8 10 11 13,65.4 a.u.
2'F-ANA at 2 3 5 6 7 10 11 12 15,55.7 a.u.
2'F-ANA at 1 8 9 10 11 15,58.3 a.u.
2'F-ANA at 1 2 3 4 6 7 12 14,78.9 a.u.
2'F-ANA at 3 5 8 9 14,112 a.u.

# Mixed results
Sequence,target,technique,molecule type,baseline,quantity,result
GGAGTGCGCACTCC (dsDNA),"KAT6A 1-85 Q25A (Homo sapiens, UniProt Q92794)",ITC,"double-stranded DNA, one strand shown",WT,relative binding,3

# A few entries again (series 5):
Modification,mean fluorescence intensity
2'F-ANA at 3 5 8 9 14,112 a.u.
2'F-ANA at 1 8 9 10 11 15,58.3 a.u.
2'F-ANA at 3 4 6 7 9 10 11 12 13 14 15,152 a.u.
2'F-ANA at 1 2 4 5 6 8 9 10 12,50.1 a.u.
2'F-ANA at 1 3 5 7 11 15,57.1 a.u.
